Measured values collected from several papers.
Numbered parts are unrelated; each lists some results of a single study. “And” joins repeats or separate records; there may be more than shown.
Sequence of UniProt Q99683 (whole entry, looked up): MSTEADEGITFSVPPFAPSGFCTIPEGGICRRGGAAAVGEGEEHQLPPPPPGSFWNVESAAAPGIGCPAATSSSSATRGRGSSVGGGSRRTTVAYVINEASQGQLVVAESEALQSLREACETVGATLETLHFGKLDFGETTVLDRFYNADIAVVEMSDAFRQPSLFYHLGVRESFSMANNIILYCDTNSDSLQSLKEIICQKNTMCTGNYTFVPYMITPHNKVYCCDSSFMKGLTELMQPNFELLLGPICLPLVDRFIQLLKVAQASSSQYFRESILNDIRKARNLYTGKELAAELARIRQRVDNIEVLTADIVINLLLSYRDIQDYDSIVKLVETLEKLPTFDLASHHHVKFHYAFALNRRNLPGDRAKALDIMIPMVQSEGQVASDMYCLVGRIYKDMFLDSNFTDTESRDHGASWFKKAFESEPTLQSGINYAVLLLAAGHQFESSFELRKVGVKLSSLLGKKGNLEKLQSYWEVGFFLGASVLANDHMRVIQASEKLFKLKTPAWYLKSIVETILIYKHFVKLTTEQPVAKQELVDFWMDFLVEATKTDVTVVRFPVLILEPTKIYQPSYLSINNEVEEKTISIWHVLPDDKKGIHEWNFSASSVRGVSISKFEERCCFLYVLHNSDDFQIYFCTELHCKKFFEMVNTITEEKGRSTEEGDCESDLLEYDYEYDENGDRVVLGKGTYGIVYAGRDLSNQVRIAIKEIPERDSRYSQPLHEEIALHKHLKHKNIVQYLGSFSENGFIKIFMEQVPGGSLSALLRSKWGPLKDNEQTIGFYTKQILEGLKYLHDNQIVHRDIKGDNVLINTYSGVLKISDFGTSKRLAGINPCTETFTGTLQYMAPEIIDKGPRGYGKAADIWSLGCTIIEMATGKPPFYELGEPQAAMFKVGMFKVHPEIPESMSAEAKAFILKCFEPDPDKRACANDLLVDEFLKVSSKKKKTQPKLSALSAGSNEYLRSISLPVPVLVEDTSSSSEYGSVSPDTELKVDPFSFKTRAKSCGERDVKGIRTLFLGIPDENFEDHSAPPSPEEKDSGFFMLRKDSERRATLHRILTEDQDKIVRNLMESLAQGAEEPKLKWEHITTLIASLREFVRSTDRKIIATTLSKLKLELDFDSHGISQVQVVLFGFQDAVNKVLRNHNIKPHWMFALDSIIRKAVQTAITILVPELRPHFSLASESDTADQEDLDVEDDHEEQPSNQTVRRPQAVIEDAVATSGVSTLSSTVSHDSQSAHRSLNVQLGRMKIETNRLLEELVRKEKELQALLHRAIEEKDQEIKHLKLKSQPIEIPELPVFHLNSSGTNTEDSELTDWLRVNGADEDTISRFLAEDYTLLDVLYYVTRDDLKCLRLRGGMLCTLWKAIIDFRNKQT

Set 1
Cell line: mouse MPNST tumor cells
Method: high-content immunofluorescence imaging
Measured: nuclear SOX9
Concentration: 10 µM
Time: 12 h
Notes: mean of 2 replicates
Baseline: DMSO control
Direction: higher = more nuclear SOX9
Under “nuclear SOX9 intensity”, `O=P(O)(O)C(O)(Cn1ccnc1)P(=O)(O)O` is recorded as 93.1 % of DMSO.
For `C[C@H](NC(=O)c1sccc1OCc1ccc(Cl)cc1)c1ccccc1`, “nuclear SOX9 intensity” read 113 % of DMSO.
For `COc1ccccc1C(=O)Nc1cccc(NC(=O)c2cccc(C)c2)c1`, “nuclear SOX9 intensity” read 100 % of DMSO.
`CN1C(=O)c2sccc2N(C)c2nc(Nc3ccc(S(N)(=O)=O)cc3)ncc21`: “nuclear SOX9 intensity” 115 % of DMSO.
`Cc1c(C)c(NCC(=O)N(C)C2CCN(Cc3ccc(C(N)=O)cc3)CC2)c(C)c(C)c1N` — result for “nuclear SOX9 intensity”: 103 % of DMSO.
For `C=C1/C(=C\C=C2/CCC[C@]3(C)[C@@H]([C@H](C)CCCC(C)C)CC[C@@H]23)C[C@@H](O)C[C@@H]1O`, “nuclear SOX9 intensity” read 88.6 % of DMSO.
For `CNc1cc(OC)c(C(=O)NC2CCN(Cc3ccccc3)C2C)cc1Cl` (stereo not shown), “nuclear SOX9 intensity” read 108 % of DMSO.
`COc1ccc(C2(CNC(=O)c3ccc(NC(=O)c4ccco4)cc3)CCOCC2)cc1`: “nuclear SOX9 intensity” 86.8 % of DMSO.
`CCN(C(=O)CO)[C@H]1CN(/C(=N\C#N)Nc2cccc(OC(F)F)c2)N=C1c1ccc(Cl)c(Cl)c1`: “nuclear SOX9 intensity” 132 % of DMSO.
Under “nuclear SOX9 intensity”, `CCC(NC(C)C)C(O)c1ccc(O)c2[nH]c(=O)ccc12` (stereo not shown) is recorded as 101 % of DMSO.
`CCCN(CCC)C(=O)C(CCC(=O)O)NC(=O)c1ccccc1` (stereo not shown): “nuclear SOX9 intensity” 100 % of DMSO.
`N=C(N)SCc1ccc(B(O)O)cc1`: “nuclear SOX9 intensity” 98.2 % of DMSO.
`CC(C(=O)O)c1cccc(Oc2ccccc2)c1` (stereo not shown) — result for “nuclear SOX9 intensity”: 94.8 % of DMSO and 92.8 % of DMSO.

Set 2
Cell line: A-375
Concentration: 100 µM
Time: 36 h
`O=C1c2cccc3c2[C@H](CCC3)CN1[C@@H]1CN2CCC1CC2` gave a viability of 39.7%.
For `Clc1ccc(C(Cn2ccnc2)OCc2csc3c(Cl)cccc23)c(Cl)c1` (stereo not shown), the viability was 1.41%.
`N=C(N)NC(=O)Cc1c(Cl)cccc1Cl` has a viability of 88.4%.
`O=C(O)CC(O)(CC(=O)O)C(=O)O` gave a viability of 111%.
For `COc1ccc2c(c1)c(CC(=O)O)c(C)n2C(=O)c1ccc(Cl)cc1`, the viability was 103%.
The viability of `CCCC(=O)OCOC(=O)C1=C(C)NC(C)=C(C(=O)OC)C1c1cccc(Cl)c1Cl` (stereo not shown) is reported as 11.2%.
`CCc1cc2c(cc1N1CCC(N3CCOCC3)CC1)C(C)(C)c1[nH]c3cc(C#N)ccc3c1C2=O` gave a viability of 4.63%.
For `O=C(CCNNC(=O)c1ccncc1)NCc1ccccc1`, the viability was 101%.
`O=C(O)[C@H](O)[C@@H](O)[C@H](O)[C@H](O)CO` gave a viability of 99.8%.
`CCN(CC)C(=O)N1CCN(C)CC1` gave a viability of 107%.
For `COc1cc(/C=C/C(=O)O)ccc1O`, the viability was 101%.
`CNNCc1ccc(C(=O)NC(C)C)cc1` has a viability of 105%.
For `Cc1ccc(C)c(OCCCC(C)(C)C(=O)O)c1`, the viability was 102%.
The viability of `Nc1ccc(O)c(C(=O)O)c1` is reported as 91.3%.
`CCOc1nc2cccc(C(=O)O)c2n1Cc1ccc(-c2ccccc2-c2noc(=O)[nH]2)cc1` gave a viability of 95.7%.

Set 3
Host: mouse
Matrix: microsomes or S9
Concentration: 2 µM
Time: 0.5 h
For `CNC[C@@H]1C[C@H](F)CN1C(=O)Cc1n[nH]c2ccccc12`, the remaining compound was > 100%.
`COc1cc2c(Nc3ccc(Br)cc3F)ncnc2cc1OCCCN1CCOC(CO)C1` (stereo not shown) has a remaining compound of 75.8%.
`Cc1ccc(S(=O)(=O)c2c(O)c3sc4cccc(Cl)c4c3[nH]c2=O)cc1` has a remaining compound of 1.54%.
For `Cc1ncc2c(c1O)COC(C)OC2` (stereo not shown), the remaining compound was 97.3%.
The remaining compound of `Cc1nc(C)n(C(C)CNC(=O)CN2C(=O)COc3ccc(C(C)(C)C)cc32)n1` (stereo not shown) is reported as 93.1%.
`Cc1cc(C)cc(OC(C)C(=O)NCCN(C)C)c1` (stereo not shown) has a remaining compound of 59.5%.
The remaining compound of `COc1cc(Br)c(S(=O)(=O)NC2CCN(C(=O)c3ccccc3)CC2)cc1OC` is reported as 94.1%.
For `CC(C)(C)OC(=O)N1CCC(Nc2nccn3c(Br)cnc23)CC1`, the remaining compound was 3.75%.
`Nc1nc(N2CCN(C3CCCCC3)CC2)nc2ccccc12` has a remaining compound of 0.0283%.
`c1ccc(-c2ccc(-c3cn4c5ccccc5nc4n3CCN3CCCCC3)cc2)cc1` gave a remaining compound of 0.323%.
The remaining compound of `CC(=O)Nc1cccc(NS(=O)(=O)c2c(C)nc(O)[nH]c2=O)c1` is reported as > 100%.
`CN(C)S(=O)(=O)c1cc(C(=O)NC2CCCCC2)c(Cl)cc1Cl` gave a remaining compound of 1.56%.
`Cc1cc(C)c(NS(=O)(=O)c2cnc(O)[nH]c2=O)c(C)c1` has a remaining compound of > 100%.

Further values, each from its own experiment
The EC50 of `C[C@@H]1CN(c2cc(-c3nn(C)c4ccc(OC5(C)CC5)cc34)ncn2)C[C@H](C)O1` is reported as 8270 nM and 1160 nM and 2980 nM (Mitogen-activated protein kinase kinase kinase 5 (MAP3K5, Homo sapiens, UniProt Q99683); target engagement, NanoBRET; live cells).
`Cn1cncc1[C@@](O)(COc1ccc(C#N)cc1-c1ccc(OC(F)(F)F)cc1)c1ccc(C#N)cc1` — result for “cells with altered mitochondria”: 36.3% and 28.1% (HEK293T; high-content imaging; 10 µM, 0 h).

For quick reference, copied from above (set 1):
Under “nuclear SOX9 intensity”, `O=P(O)(O)C(O)(Cn1ccnc1)P(=O)(O)O` is recorded as 93.1 % of DMSO.
For `C[C@H](NC(=O)c1sccc1OCc1ccc(Cl)cc1)c1ccccc1`, “nuclear SOX9 intensity” read 113 % of DMSO.
For `COc1ccccc1C(=O)Nc1cccc(NC(=O)c2cccc(C)c2)c1`, “nuclear SOX9 intensity” read 100 % of DMSO.
`CN1C(=O)c2sccc2N(C)c2nc(Nc3ccc(S(N)(=O)=O)cc3)ncc21`: “nuclear SOX9 intensity” 115 % of DMSO.
`Cc1c(C)c(NCC(=O)N(C)C2CCN(Cc3ccc(C(N)=O)cc3)CC2)c(C)c(C)c1N` — result for “nuclear SOX9 intensity”: 103 % of DMSO.
For `C=C1/C(=C\C=C2/CCC[C@]3(C)[C@@H]([C@H](C)CCCC(C)C)CC[C@@H]23)C[C@@H](O)C[C@@H]1O`, “nuclear SOX9 intensity” read 88.6 % of DMSO.
